Results of several laboratories.
Numbered parts are unrelated; each lists some results of a single study.

Block 1
Target: Sal-like protein 4, full length isoform A (SALL4, Homo sapiens, UniProt Q9UJQ4, residues 1-1053)
UniProt Q9UJQ4, sequence (whole entry, looked up): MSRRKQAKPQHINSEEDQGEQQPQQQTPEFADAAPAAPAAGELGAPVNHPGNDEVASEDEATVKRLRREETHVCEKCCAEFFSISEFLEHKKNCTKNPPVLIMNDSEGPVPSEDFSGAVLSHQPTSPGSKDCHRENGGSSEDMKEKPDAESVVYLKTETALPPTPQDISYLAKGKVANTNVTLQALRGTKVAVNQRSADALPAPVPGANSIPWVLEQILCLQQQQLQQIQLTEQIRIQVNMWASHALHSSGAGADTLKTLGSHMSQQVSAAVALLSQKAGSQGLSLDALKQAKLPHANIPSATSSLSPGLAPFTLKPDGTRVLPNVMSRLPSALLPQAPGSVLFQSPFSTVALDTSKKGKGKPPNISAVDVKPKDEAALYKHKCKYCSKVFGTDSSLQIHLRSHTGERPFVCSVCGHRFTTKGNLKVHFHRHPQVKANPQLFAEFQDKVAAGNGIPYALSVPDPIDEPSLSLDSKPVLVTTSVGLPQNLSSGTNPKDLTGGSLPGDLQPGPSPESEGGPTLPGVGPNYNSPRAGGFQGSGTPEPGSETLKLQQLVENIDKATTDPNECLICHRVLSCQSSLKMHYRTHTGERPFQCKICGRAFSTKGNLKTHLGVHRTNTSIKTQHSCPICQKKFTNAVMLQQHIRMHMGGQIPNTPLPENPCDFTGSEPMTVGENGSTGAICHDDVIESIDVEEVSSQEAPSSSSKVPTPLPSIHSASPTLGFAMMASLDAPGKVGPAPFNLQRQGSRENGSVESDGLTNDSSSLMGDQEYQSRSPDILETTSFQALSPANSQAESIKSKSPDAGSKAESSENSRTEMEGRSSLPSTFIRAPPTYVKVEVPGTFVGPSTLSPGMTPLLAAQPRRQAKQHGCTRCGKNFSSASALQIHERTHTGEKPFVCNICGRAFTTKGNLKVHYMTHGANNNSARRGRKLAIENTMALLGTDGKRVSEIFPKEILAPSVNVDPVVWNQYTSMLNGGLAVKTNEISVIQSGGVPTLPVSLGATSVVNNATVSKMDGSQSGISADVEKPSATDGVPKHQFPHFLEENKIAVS
Method: universal PBM
Form: double-stranded DNA, one strand shown
Matrix: in vitro
Concentration: 600 nM
Setting: 8-mer, flanks averaged, mean of replicates
Direction: higher = stronger binding
Sequence | E-score
ATCAACTC | 0.0653
ATGTGGAA | 0.195
CTCACTTA | 0.0406
AACTAGGG | -0.0458

Block 2
Target: Interferon regulatory factor 5, full length, phosphomimetic (IRF5, Homo sapiens, UniProt Q13568-2, residues 1-514, K96S/S451D/S453D/S456D/S462D)
Method: protein-binding microarray
Form: double-stranded DNA, one strand shown
Matrix: in vitro
Concentration: 250 nM
Setting: 60-bp whole probe
Together with: salmon DNA 0.4 mg/ml
Relative to: random background probes
Direction: higher = stronger binding
Shared flanks, not repeated: GCCTAGCAC … GTCTTGATTCGCTTGACGCTGCTG
Sequence | log fluorescence [z-score]
TCATGTATATATGTGTAACTGTGCTAG | 0.346
TTAGGTAACGGTTTCGGTTAGTGCTAG | 8.38
GCGCCTTGATGTCTGGGTCTGTGCTAG | -0.206
TTAGAACTGGGGTTTCGTTTAGTGCTA | 2.66
GACGAAATCAGACTGGAGACGTGCTAG | 0.629

Block 3
Target: RNA binding protein fox-1 homolog 2, RRM domain, GST-SBP tag (RBFOX2, Homo sapiens, UniProt O43251-10, residues 100-194)
Method: RNA Bind-n-Seq
Form: RNA
Matrix: in vitro
Concentration: 365 nM
Setting: natural RNA segment, single round, ends assumed
Relative to: no-protein control
Direction: higher = stronger binding
Sequence | RBNS enrichment (R)
GGGAGUUCUACAGUCCGACGAUCAUUACAAUUUUGGAUGCUAAAAAGUAACUUUCUAGUUAACCCUAAAGUCCUGUCAGAUUGUGAAGAAAUGUUCCAGGAUACACUUGGAUUAGUUAUGCAGUAUUUCUUAUUGGAAUUCUCGGGUGCCAA | 0.504
GGGAGUUCUACAGUCCGACGAUCAACCCAUACCCAGCAUCCCUCCCCUGCCCUGGCCCUCGGCUGUGUAUUUAUAGAUGGAAAUAUACUUUAUAUUUUGUAUCAUUGUGCCUAUAGCCUCUGCCACCUUGUAUUGGAAUUCUCGGGUGCCAA | 0.621
GGGAGUUCUACAGUCCGACGAUCGGAAAAUCAAGAUGUGGCUGAAGAUCAGAGGCUCAGUUAGCAACCUGUGUUGUAGCAGUGAUGUCAGUCCAUUGAUUGUCUUUAGAGAGUUAAUGUUACAAAAAAGAAUUUGGAAUUCUCGGGUGCCAA | 0.655
GGGAGUUCUACAGUCCGACGAUCGCACAGGUGCAGGCAAACCCUUCCAGCUGGGUUAAUUGCCGUUUAUGGUUUACUCACUUAGGGAAAGGGCUUAGGUGUUAGGCUGUGGGCUGCUUCUCCCUAACCAUCCAUGGAAUUCUCGGGUGCCAA | 0.515

Single results of other studies
Molecule | target | assay | system | setting | scale | endpoint | result
PhoQ, residues 284 288 289 292 302 303 SIHMAM | PhoP, residues 12 14 15 18 19 LHSVQ (Escherichia coli, UniProt P23836) | Sort-seq, measured: YFP reporter | E. coli | PhoQ-PhoP variant library, together with: 10 µM Mg2+ | relative to: high Mg2+ state, higher = stronger signaling | fold induction | 11.5

Excerpt of the above (block 1):
Sequence | E-score
ATGTGGAA | 0.195
